# Literature values as cited in several papers.
# Lines come from different studies, so protocols differ. Numbers after ± are the reported error.
Compound,target or system,test,test system,conditions,measurement,value
O=C1NC(=O)C(=Cc2c[nH]c3ccc(OCc4ccccc4)cc23)S1,Mycobacterium tuberculosis,,H37Rv,,MIC,1.55 µM
O=c1ccc2ncc(=O)n3c2n1C[C@H]3CN1CCC(NCc2cc3c(cn2)OCCC3)CC1,Mycobacterium tuberculosis,,H37Rv wild type,,MIC,0.5 µg/mL
CCCCCCCN(CC)CCCC(O)c1ccc(NS(C)(=O)=O)cc1 (stereo not shown),,,mouse,,fraction unbound,0.114
CC[C@H]1OC(=O)[C@H](C)[C@@H](O[C@H]2C[C@@](C)(OC)[C@@H](O)[C@H](C)O2)[C@H](C)[C@@H](O[C@@H]2O[C@H](C)C[C@H](N(C)C)[C@H]2O)[C@](C)(OC)C[C@@H](C)C(=O)[C@H](C)[C@@H](O)[C@]1(C)O,Mycobacterium tuberculosis,,H37Ra,,MIC,16 µg/mL
COc1cc(C=C2SC(=O)N(CCC(=O)NNC(=O)c3ccncc3)C2=O)cc(OC)c1OC,Mycobacterium tuberculosis,,H37Rv,,MIC,1.55 µM
CO[C@@H]1[C@@H](OC(N)=O)[C@@H](O)[C@H](Oc2ccc3c(O)c(NC(=O)c4ccc(O)c(CC=C(C)C)c4)c(=O)oc3c2C)OC1(C)C,Mycobacterium tuberculosis,,H37Ra,,MIC,1.5 µg/mL
CC1CCN(C(=O)c2ccc3c(c2)c2c(n3S(=O)(=O)c3ccccc3)CN(C3CCCC3)C2)CC1,CB1 receptor,binding,,,Ki,259 nM
NC(=O)c1ncn([C@@H]2O[C@H](CO)[C@@H](O)[C@H]2O)n1,Influenza A virus H1N1,,,,EC50,20100 ± 2100 nM
O=C(NN1CCCCC1)c1nc(-c2ccc(Cl)cc2Cl)n(-c2ccc(Cl)cc2)c1Cl,CB1 receptor,binding,,,Ki,27 nM
CCCCc1ccc(NC(=O)C2=CCN(C)[C@@H]([C@H](O[C@@H]3O[C@H](CN)[C@@H](O)[C@H]3O)[C@H]3O[C@@H](n4ccc(=O)[nH]c4=O)[C@H](O)[C@@H]3O)C(=O)N2C)cc1,Mycobacterium,,,,MIC,0.2 to 1.56 µg/mL
CCCCCOc1ccc(-c2ccc(-c3ccc(C(=O)N[C@H]4C[C@@H](O)[C@@H](O)NC(=O)[C@@H]5[C@@H](O)[C@@H](C)CN5C(=O)[C@H]([C@@H](C)O)NC(=O)[C@H]([C@H](O)[C@@H](O)c5ccc(O)cc5)NC(=O)[C@@H]5C[C@@H](O)CN5C(=O)[C@H]([C@@H](C)O)NC4=O)cc3)cc2)cc1,,,severe hepatic impairment patients,50 mg single dose,AUC(0-inf),46600 ± 14100 ng·h/mL
C[C@H]1c2cccc(O)c2C(=O)C2=C(O)[C@]3(O)C(=O)C(C(N)=O)=C(O)[C@@H](N(C)C)[C@@H]3[C@@H](O)[C@@H]21,Mycobacterium tuberculosis,,H37Ra,,MIC,1 µg/mL
CC(C)(C)[C@H](NC(=O)C(F)(F)F)C(=O)N1C[C@H]2[C@@H]([C@H]1C(=O)N[C@H](C#N)C[C@@H]1CCNC1=O)C2(C)C,human coronavirus 229E,,MRC5,concentration not given,viral cytopathic effect,inhibited

# For quick reference, copied from above:
Compound,target or system,test,test system,conditions,measurement,value
CCCCc1ccc(NC(=O)C2=CCN(C)[C@@H]([C@H](O[C@@H]3O[C@H](CN)[C@@H](O)[C@H]3O)[C@H]3O[C@@H](n4ccc(=O)[nH]c4=O)[C@H](O)[C@@H]3O)C(=O)N2C)cc1,Mycobacterium,,,,MIC,0.2 to 1.56 µg/mL
CCCCCOc1ccc(-c2ccc(-c3ccc(C(=O)N[C@H]4C[C@@H](O)[C@@H](O)NC(=O)[C@@H]5[C@@H](O)[C@@H](C)CN5C(=O)[C@H]([C@@H](C)O)NC(=O)[C@H]([C@H](O)[C@@H](O)c5ccc(O)cc5)NC(=O)[C@@H]5C[C@@H](O)CN5C(=O)[C@H]([C@@H](C)O)NC4=O)cc3)cc2)cc1,,,severe hepatic impairment patients,50 mg single dose,AUC(0-inf),46600 ± 14100 ng·h/mL
